Measurements collected from several papers.
Several values in a cell are separate wells, animals, samples, runs or records. ± gives the spread as reported. Values after ≈ are worked out from the molar mass of the structure shown.
UniProt Q9Y5Y9, sequence (whole entry, looked up): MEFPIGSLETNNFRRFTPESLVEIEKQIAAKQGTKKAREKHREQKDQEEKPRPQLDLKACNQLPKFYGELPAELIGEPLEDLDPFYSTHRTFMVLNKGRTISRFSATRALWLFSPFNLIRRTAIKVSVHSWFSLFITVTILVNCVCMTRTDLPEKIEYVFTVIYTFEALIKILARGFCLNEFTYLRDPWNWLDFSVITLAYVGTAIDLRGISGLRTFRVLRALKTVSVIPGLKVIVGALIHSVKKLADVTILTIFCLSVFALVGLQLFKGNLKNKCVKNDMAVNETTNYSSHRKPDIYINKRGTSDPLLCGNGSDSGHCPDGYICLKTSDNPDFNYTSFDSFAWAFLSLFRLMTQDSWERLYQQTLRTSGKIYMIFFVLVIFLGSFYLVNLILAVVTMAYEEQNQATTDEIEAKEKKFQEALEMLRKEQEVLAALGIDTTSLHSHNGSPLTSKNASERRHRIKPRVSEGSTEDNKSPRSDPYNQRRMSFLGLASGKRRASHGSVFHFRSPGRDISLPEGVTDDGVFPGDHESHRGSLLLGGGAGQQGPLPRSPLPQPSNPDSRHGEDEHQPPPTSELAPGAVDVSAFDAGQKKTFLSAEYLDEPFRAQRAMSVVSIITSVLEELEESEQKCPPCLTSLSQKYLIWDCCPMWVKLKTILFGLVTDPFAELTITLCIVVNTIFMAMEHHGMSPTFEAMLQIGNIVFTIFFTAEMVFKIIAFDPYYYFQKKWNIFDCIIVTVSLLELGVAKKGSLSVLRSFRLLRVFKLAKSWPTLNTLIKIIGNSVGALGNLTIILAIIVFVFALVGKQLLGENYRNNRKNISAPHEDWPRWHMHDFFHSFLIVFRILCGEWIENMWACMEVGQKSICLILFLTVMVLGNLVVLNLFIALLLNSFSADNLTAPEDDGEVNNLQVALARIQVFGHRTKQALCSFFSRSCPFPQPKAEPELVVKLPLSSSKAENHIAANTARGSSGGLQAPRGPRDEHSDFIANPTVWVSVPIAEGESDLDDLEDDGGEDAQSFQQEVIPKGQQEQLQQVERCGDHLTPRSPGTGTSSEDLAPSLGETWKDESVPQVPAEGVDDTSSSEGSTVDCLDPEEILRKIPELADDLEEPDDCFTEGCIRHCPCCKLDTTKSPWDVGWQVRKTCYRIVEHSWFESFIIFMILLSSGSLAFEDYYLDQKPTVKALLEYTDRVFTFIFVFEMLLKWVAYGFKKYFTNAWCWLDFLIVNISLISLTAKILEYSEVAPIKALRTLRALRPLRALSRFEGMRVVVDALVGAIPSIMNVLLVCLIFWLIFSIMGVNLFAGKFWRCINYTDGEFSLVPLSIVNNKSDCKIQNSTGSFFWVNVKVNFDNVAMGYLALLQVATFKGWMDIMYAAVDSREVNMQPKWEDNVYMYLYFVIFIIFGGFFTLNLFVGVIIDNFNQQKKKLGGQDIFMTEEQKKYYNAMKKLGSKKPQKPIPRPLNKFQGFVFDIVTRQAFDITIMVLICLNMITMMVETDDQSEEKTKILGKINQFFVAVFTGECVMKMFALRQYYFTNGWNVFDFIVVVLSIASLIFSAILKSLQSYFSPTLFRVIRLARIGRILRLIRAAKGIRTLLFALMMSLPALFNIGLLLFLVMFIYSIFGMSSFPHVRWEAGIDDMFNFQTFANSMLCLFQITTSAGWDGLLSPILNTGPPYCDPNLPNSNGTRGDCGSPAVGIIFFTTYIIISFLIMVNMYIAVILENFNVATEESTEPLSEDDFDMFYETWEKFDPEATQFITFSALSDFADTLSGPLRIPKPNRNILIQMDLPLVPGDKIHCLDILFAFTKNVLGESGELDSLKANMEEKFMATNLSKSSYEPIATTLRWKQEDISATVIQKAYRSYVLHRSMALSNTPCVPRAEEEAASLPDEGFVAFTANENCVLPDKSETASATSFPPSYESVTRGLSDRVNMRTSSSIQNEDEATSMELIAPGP

CC(C)C[C@@H]1NC(=O)[C@H](CCCNC(=N)N)NC(=O)[C@@H]2CCCN2C(=O)[C@@H]2CSSC[C@H](NC(=O)CNC(=O)[C@@H]3CCCN3C(=O)[C@H](CCCCN)NC(=O)[C@H](CC(=O)O)NC(=O)[C@@H](NC(=O)CN)C(C)C)C(=O)N[C@@H](CCCNC(=N)N)C(=O)N[C@@H](Cc3ccc(O)cc3)C(=O)N[C@@H](CC(C)C)C(=O)N[C@@H](Cc3ccccc3)C(=O)NCC(=O)NCC(=O)N[C@H]3CSSC[C@H](NC(=O)CNC1=O)C(=O)N[C@@H](CCCCN)C(=O)NCC(=O)N[C@@H](CCCCN)C(=O)NCC(=O)N[C@@H](Cc1c[nH]cn1)C(=O)N[C@@H](CC(=O)O)C(=O)N[C@@H](Cc1ccc(O)cc1)C(=O)N[C@H](C(=O)N[C@@H](C)C(=O)N[C@@H](Cc1c[nH]c4ccccc14)C(=O)N[C@@H](CC(=O)O)C(=O)NCC(=O)N[C@H](C(=O)N[C@@H](Cc1ccccc1)C(=O)N[C@@H](CO)C(=O)N[C@@H](CC(=O)O)C(=O)O)[C@@H](C)O)CSSC[C@H](NC(=O)[C@H](CC(=O)O)NC(=O)[C@H](CC(=O)O)NC(=O)[C@H](CC(=O)O)NC(=O)[C@H](CO)NC(=O)[C@H](CCCCN)NC3=O)C(=O)N2  activation time constant (SCN10A (Homo sapiens, UniProt Q9Y5Y9); 1 µM, test potential -10 mV): 1.6 ± 0.1 ms
CCCCCCCCCCCCCCCC(=O)N[C@@H](CCC(=O)NCCOCCOCCC(=O)NCCOCCOCCC(=O)NCCCC[C@H](NC(=O)[C@H](CC(=O)O)NC(=O)[C@H](CC(C)C)NC(=O)[C@H](Cc1ccc(O)cc1)NC(=O)[C@H](CCCCN)NC(=O)[C@H](CO)NC(=O)[C@H](Cc1ccc(O)cc1)NC(=O)[C@H](CC(=O)O)NC(=O)[C@H](CO)NC(=O)[C@@H](NC(=O)[C@H](Cc1ccccc1)NC(=O)[C@@H](NC(=O)CNC(=O)[C@H](CCC(N)=O)NC(=O)[C@@H](CO)NC(=O)[C@@H](N)Cc1c[nH]cn1)[C@@H](C)O)[C@@H](C)O)C(=O)N[C@@H](CCCNC(=N)N)C(=O)N[C@@H](CCCNC(=N)N)C(=O)N[C@@H](C)C(=O)N[C@@H](CCC(N)=O)C(=O)N[C@@H](CC(=O)O)C(=O)N[C@@H](Cc1ccccc1)C(=O)N[C@H](C(=O)N[C@@H](CCC(N)=O)C(=O)N[C@@H](Cc1c[nH]c2ccccc12)C(=O)N[C@@H](CC(C)C)C(=O)N[C@@H](CC(C)C)C(=O)N[C@@H](CC(N)=O)C(=O)N[C@H](C(=O)NCC(=O)NCC(=O)N1CCC[C@H]1C(=O)N[C@@H](CO)C(=O)N[C@@H](CO)C(=O)NCC(=O)N[C@@H](C)C(=O)N1CCC[C@H]1C(=O)N1CCC[C@H]1C(=O)N1CCC[C@H]1C(=O)N[C@@H](CO)C(N)=O)[C@@H](C)O)C(C)C)C(=O)O  serum cholesterol (male rhesus monkeys; subcutaneous, 20 µg/kg once daily, 28 days): 2.75 ± 0.34 mmol/L
CCCCCCCCCCCCCCCC(=O)N[C@@H](CCC(=O)NCCCC[C@H](NC(=O)[C@H](CC(=O)O)NC(=O)[C@H](CO)NC(=O)[C@@H](NC(=O)[C@H](Cc1ccccc1)NC(=O)[C@@H](NC(=O)CNC(=O)[C@H](CCC(N)=O)NC(=O)[C@H](C)NC(=O)[C@@H](Cc1ccc(O)cc1)NC(C)=O)[C@@H](C)O)[C@@H](C)O)C(=O)N[C@@H](CO)C(=O)N[C@@H](CCCCN)C(=O)N[C@@H](Cc1ccc(O)cc1)C(=O)N[C@@H](CC(C)C)C(=O)N[C@@H](CC(=O)O)C(=O)N[C@@H](CCC(=O)O)C(=O)N[C@@H](CCCNC(=N)N)C(=O)N[C@@H](C)C(=O)N[C@@H](C)C(=O)N[C@@H](CCC(N)=O)C(=O)N[C@@H](CC(=O)O)C(=O)N[C@@H](Cc1ccccc1)C(=O)N[C@H](C(=O)N[C@@H](CCC(N)=O)C(=O)N[C@@H](Cc1c[nH]c2ccccc12)C(=O)N[C@@H](CC(C)C)C(=O)N[C@@H](CC(C)C)C(=O)N[C@@H](CCC(=O)O)C(=O)NCC(=O)NCC(=O)N1CCC[C@H]1C(=O)N[C@@H](CO)C(=O)N[C@@H](CO)C(=O)NCC(=O)N[C@@H](C)C(=O)N1CCC[C@H]1C(=O)N1CCC[C@H]1C(=O)N1CCC[C@H]1C(=O)N[C@@H](CO)C(N)=O)C(C)C)C(=O)O  Tmax (male cynomolgus monkey, plasma; subcutaneous, 0.0211 mg/kg): 7 h
Cc1cc(/C=C/C#N)cc(C)c1Nc1nc(Nc2ccc(C#N)cc2)ncc1N  EC50 (HIV-1; viral replication, single-round infection; RT mutant H221Y): 0.0009 ± 0.0001 µM
Cc1cc(C)cc(S(=O)(=O)c2c(C(N)=O)[nH]c3ccc(Cl)cc23)c1  EC50 (HIV-1; viral replication; MT-4, E138K mutant): 0.9 ± 0.065 µM
CC[C@H](C)[C@H](NC(=O)[C@H](CCCCN)NC(=O)[C@H](CCCCN)NC(=O)[C@H](CC(C)C)NC(=O)[C@H](Cc1c[nH]c2ccccc12)NC(=O)CN)C(=O)NCC(=O)N[C@@H](CCCCN)C(=O)N[C@@H](CCCCN)C(=O)N[C@H](C(=O)N[C@@H](CCC(=O)O)C(=O)N[C@@H](CCCNC(=N)N)C(=O)N[C@H](C(=O)NCC(=O)N[C@@H](CCC(N)=O)C(=O)N[C@@H](Cc1c[nH]cn1)C(=O)N[C@H](C(=O)N[C@@H](CCCNC(=N)N)C(=O)N[C@@H](CC(=O)O)C(=O)N[C@@H](C)C(=O)N[C@H](C(=O)N[C@H](C(=O)N[C@@H](CCC(N)=O)C(=O)N[C@H](C(=O)N[C@H](C(=O)NCC(=O)N[C@H](C(=O)N[C@@H](C)C(=O)N[C@@H](CCC(N)=O)C(=O)N[C@@H](CCC(N)=O)C(=O)N[C@@H](C)C(=O)N[C@@H](C)C(=O)N[C@@H](CC(N)=O)C(=O)N[C@H](C(=O)N[C@@H](C)C(=O)N[C@@H](C)C(=O)N[C@H](C(=O)N[C@@H](CC(C)C)C(=O)N[C@@H](CCCCN)C(N)=O)[C@@H](C)O)C(C)C)C(C)C)[C@@H](C)CC)[C@@H](C)O)[C@@H](C)CC)[C@@H](C)O)[C@@H](C)O)C(C)C)[C@@H](C)CC  MIC (Acinetobacter baumannii; isolate RKI 19/09, CAMHB): 4 mg/L (≈ 0.952 µM)
Cc1cc(/C=C/C#N)cc(C)c1-n1cnc2cnc(Nc3ccc(C#N)cc3)nc21  EC50 (HIV-1; viral replication, single-round infection; RT mutant E138K/M184I): 0.0009 ± 0.0006 µM
COc1ccc(S(=O)(=O)O)cc1N=Nc1c(S(=O)(=O)O)cc2cc(NCc3nc(CNc4cc(C)c(N=Nc5cc(S(=O)(=O)O)cc6cc(S(=O)(=O)O)cc(O)c56)cc4OC)nc(Nc4ccccc4)n3)ccc2c1O  IC50 (HIV-1; pseudovirus infection; SF162 K35A): 1.46 ± 0.45 µM
CC(C)N1CCn2cc(C(=O)NCc3ccc(F)cc3F)c(=O)c(O)c2C1=O  EC50 (HIV-1; viral replication, single-round vector infection; IN E138A/G140S/Q148H): 0.0959 ± 0.0098 µM
CC[C@H](C)[C@H](NC(=O)[C@H](CCCN)NC(=O)[C@H](CC(=O)O)NC(=O)[C@H](CC(C)C)NC(=O)C(C)(CC(C)C)NC(=O)[C@@H](NC(=O)[C@H](CO)NC(=O)[C@H](Cc1ccc(O)cc1)NC(=O)[C@H](CC(=O)O)NC(=O)[C@H](CO)NC(=O)[C@@H](NC(=O)[C@H](Cc1ccccc1)NC(=O)[C@@H](NC(=O)CNC(=O)[C@H](CCC(=O)O)NC(=O)C(C)(C)NC(=O)[C@@H](N)Cc1ccc(O)cc1)[C@@H](C)O)[C@@H](C)CC)[C@@H](C)CC)C(=O)N[C@@H](Cc1c[nH]cn1)C(=O)N[C@@H](CCC(N)=O)C(=O)NC(C)(C)C(=O)N[C@@H](CC(=O)O)C(=O)N[C@@H](Cc1ccccc1)C(=O)N[C@H](C(=O)N[C@@H](CCC(=O)O)C(=O)N[C@@H](Cc1ccc(O)cc1)C(=O)N[C@@H](CCCCNC(=O)COCCOCCNC(=O)COCCOCCNC(=O)CC[C@H](NC(=O)CCCCCCCCCCCCCCCCCCC(=O)O)C(=O)O)C(=O)N[C@@H](CC(C)C)C(=O)N[C@@H](CCC(=O)O)C(=O)NCC(=O)NCC(=O)N1CCC[C@H]1C(=O)N[C@@H](CO)C(=O)N[C@@H](CO)C(=O)NCC(=O)N[C@@H](C)C(=O)N1CCC[C@H]1C(=O)N1CCC[C@H]1C(=O)N1CCC[C@H]1C(=O)N[C@@H](CO)C(N)=O)C(C)C (stereo partly shown)  Tmax (type 2 diabetes patients; subcutaneous, 25 mg, single ascending dose): 24 h
Cc1cc(C)cc(S(=O)(=O)c2c(C(=O)NC3CC4(C3)CN(Cc3n[nH]c(=O)[nH]3)C4)[nH]c3ccc(Cl)cc23)c1  EC50 (HIV-1; viral replication; MT-4, L100I mutant): 0.047 ± 0.021 µM
CC(C)n1ccn2cc(C(=O)NCc3ccc(F)cc3F)c(=O)c(O)c2c1=O  EC50 (HIV-1; viral replication, single-round vector infection; IN E138K/Q148K): 0.0561 ± 0.0089 µM
NC(=O)C[C@@H]1NC(=O)[C@H](Cc2ccc(OS(=O)(=O)O)cc2)NC(=O)c2cccc(c2)CNC(=O)[C@H](Cc2ccc(OS(=O)(=O)O)cc2)NC(=O)[C@H](CC(=O)O)NC1=O  IC50 (HIV-1; viral entry; NP2.CD4.CCR5, TA1 engineered Env pseudotype): 159 ± 30 µM
COc1ccc2c(c1)OCCCC=CCCCCN(CC(O)C(Cc1ccccc1)NC(=O)OC1COC3OCCC13)S2(=O)=O (mixture of isomers)  IC50 (HIV-1; viral replication; PHA-stimulated PBMCs, HIV-1MDR/TM X4 multidrug-resistant): 0.072 ± 0.014 µM
COc1ccnc(Nc2ccc(Cl)cc2OCC=C(C)C)n1  antiviral activity (HIV-1; MTT; MT-2, RT Y181C mutant; concentration not given): inactive
Cc1nc([C@H](NC(=O)c2ccc(-c3ccc(Cl)cc3)[nH]2)[C@@H]2CCCCN2)sc1CO  IC50 (HIV-1; viral replication; MT-2, IIIB): 0.85 µM and ≥ 0.8 µM

Excerpt of the above:
CC(C)n1ccn2cc(C(=O)NCc3ccc(F)cc3F)c(=O)c(O)c2c1=O  EC50 (HIV-1; viral replication, single-round vector infection; IN E138K/Q148K): 0.0561 ± 0.0089 µM
NC(=O)C[C@@H]1NC(=O)[C@H](Cc2ccc(OS(=O)(=O)O)cc2)NC(=O)c2cccc(c2)CNC(=O)[C@H](Cc2ccc(OS(=O)(=O)O)cc2)NC(=O)[C@H](CC(=O)O)NC1=O  IC50 (HIV-1; viral entry; NP2.CD4.CCR5, TA1 engineered Env pseudotype): 159 ± 30 µM
COc1ccc2c(c1)OCCCC=CCCCCN(CC(O)C(Cc1ccccc1)NC(=O)OC1COC3OCCC13)S2(=O)=O (mixture of isomers)  IC50 (HIV-1; viral replication; PHA-stimulated PBMCs, HIV-1MDR/TM X4 multidrug-resistant): 0.072 ± 0.014 µM
